Assay results of several laboratories.
Each numbered part is a random draw from the data of one study; scales do not carry over between parts.

Series 1 — method: protein-binding microarray; form: double-stranded DNA, one strand shown; sample: in vitro; concentration: 250 nM; notes: 60-bp whole probe; with: salmon DNA 0.4 mg/ml; reference: random background probes; reading: higher = stronger binding; measurement: log fluorescence; all sequences stand within: GCCTAGCAC … GTCTTGATTCGCTTGACGCTGCTG
Target: Interferon regulatory factor 5, full length, phosphomimetic (IRF5, Homo sapiens, UniProt Q13568-2, residues 1-514, K96S/S451D/S453D/S456D/S462D)
GACGGACTTGACTTTCGGGACGTGCTA: 4.9 z-score
GACGGTATGGACTTTCGGGACGTGCTA: 4.09 z-score
TTAGGTATCGATACTGGGTTAGTGCTA: 8.26 z-score
TTAGATTTCAGTCTCGACTAGTGCTAG: 2.12 z-score
GACGGTCTCTTTTTCCTGACGTGCTAG: 0.139 z-score
GACGATCTCAGAATGGAGACGTGCTAG: -0.247 z-score
AGTGTTTCCCCTATTTAAGAGTGCTAG: 1.04 z-score
GACGATCTCAGTTTCGACACGTGCTAG: 5.88 z-score
GACGGTATCCTTGTCCTGACGTGCTAG: -0.152 z-score
GACGGACTGGACTGTCGGGACGTGCTA: -0.537 z-score
TCAATTTTCACGGTGGGACTGTGCTAG: 0.481 z-score
GACGAACTGGGTATCGAGACGTGCTAG: 0.642 z-score

Series 2 — method: Sort-seq; measured: YFP reporter; sample: E. coli; notes: PhoQ-PhoP variant library; with: 10 µM Mg2+; reference: high Mg2+ state; reading: higher = stronger signaling; measurement: fold induction
Substance: PhoQ, residues 284 288 289 292 302 303 TTCLQL
PhoP, residues 12 14 15 18 19 VGHWL (Escherichia coli, UniProt P23836): 2.15
PhoP, residues 12 14 15 18 19 TPWTL (Escherichia coli, UniProt P23836): 1.2
PhoP, residues 12 14 15 18 19 NFFVT (Escherichia coli, UniProt P23836): 8.28

Series 3 — method: RNA Bind-n-Seq; form: RNA; sample: in vitro; concentration: not given; notes: RNA with constant flanks, ends assumed; reference: input RNA pool; reading: higher = stronger binding; measurement: bound/input enrichment
Target: RING finger protein unkempt homolog, zinc fingers 1-6, GST-SBP tag (UNK, Homo sapiens, UniProt Q9C0B0, residues 30-357)
UniProt Q9C0B0, sequence (30-357, looked up): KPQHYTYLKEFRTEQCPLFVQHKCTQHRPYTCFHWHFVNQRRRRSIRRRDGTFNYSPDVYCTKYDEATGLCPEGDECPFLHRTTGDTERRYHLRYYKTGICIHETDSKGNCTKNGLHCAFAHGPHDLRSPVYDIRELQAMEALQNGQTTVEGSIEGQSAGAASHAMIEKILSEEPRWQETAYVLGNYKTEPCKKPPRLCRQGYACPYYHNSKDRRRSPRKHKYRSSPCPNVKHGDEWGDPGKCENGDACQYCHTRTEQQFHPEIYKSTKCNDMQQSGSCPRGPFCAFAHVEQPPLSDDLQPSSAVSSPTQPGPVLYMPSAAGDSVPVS
All sequences stand within: GGGAGUUCUACAGUCCGACGAUC … CAACAGAGGAUUGAGCAUCA
AUUCUCAAUGCCACCCAGGCAGAAAGCAAAGUGUUCUACUUAAAAAUGAAAGGAGACUACUUCCGGUAUCUUUCUGAAGUUGCAUCCGGAGAAAAUAAACAAACCACGGUGUCCAACUCC: 0.132 ratio
AGGCCUUGGUUUACACCCAGAUCCAUUUAUAUGGAAGCAUCUACAGUGGAUUGUAAUGAUUCCGGUCUUUUAACUUUCCCAGCCAGAUUGCCAGCUAACACACAGAUUCUUCUCCUACAG: 0.191 ratio
GCUUUUCAAGCCAAGGAUGUGGAAGGAUCUACUUCUCCUCAAAUAGGAGAUAAGGUUGAAUUCCGUAUUAGUGACAAACAGAGGCCUGGACAGCAGGUUGCAACUUGUGUGCGACUUUUA: 0.181 ratio
ACUGGAGUUGUGCACAGCACCGCAGCUAGUGGGCCUGGCUGGGGGUGCAGAAGGGCAGGGCCGUUCUUUCCAUUUCCCCUUGCAGCUACACUUACUUUCUCCCUGACUACCAAAUGGAGU: 0.159 ratio
GAAGUAGAAGAUCCUGUGGAUUCUGAUGGUGAAGUCCUGGGCUUUGAAAAUCUCGUCUUCCGCAUUUUUGAAUUUGUCCAUGCUCUACUAGAAAAUAGCAAAUUCAAAAGCACUGUUAAG: 0.628 ratio
GAUAUCCAAGCUUGCGUGGACCAUGUGAACCUGGUGGUGCAAGAGGAACAUGAGAGGAUUUCCGCCAUUGGUUUAAUUAAUGAAGCCCUGGAUGAAGGUGAUGCCCAAAAGACUCUGCAG: 0.251 ratio
GCACAUGCCACUGUCACCAAAACAAACAACUACCACUUUCCAAAUUUCAUUCAGAACCAUUUCCGUGUUUUCCUAUUCCCUACCCCUCCCACUACUUUCAAUGAUGAAAUACCCUAAGUU: 1.01 ratio

Series 4 — method: competition protein-binding microarray; form: double-stranded DNA, one strand shown; sample: in vitro; concentration: 2 µM; with: Pho4 competitor, 0.05 µM; reading: higher = stronger binding; measurement: fluorescence intensity; all sequences stand within: … GTCTTGATTCGCTTGACGCTGCTG
Target: Centromere-binding protein 1, full length, His-tagged (CBF1, Saccharomyces cerevisiae, UniProt P17106, residues 1-351)
UniProt P17106, sequence (whole entry, looked up): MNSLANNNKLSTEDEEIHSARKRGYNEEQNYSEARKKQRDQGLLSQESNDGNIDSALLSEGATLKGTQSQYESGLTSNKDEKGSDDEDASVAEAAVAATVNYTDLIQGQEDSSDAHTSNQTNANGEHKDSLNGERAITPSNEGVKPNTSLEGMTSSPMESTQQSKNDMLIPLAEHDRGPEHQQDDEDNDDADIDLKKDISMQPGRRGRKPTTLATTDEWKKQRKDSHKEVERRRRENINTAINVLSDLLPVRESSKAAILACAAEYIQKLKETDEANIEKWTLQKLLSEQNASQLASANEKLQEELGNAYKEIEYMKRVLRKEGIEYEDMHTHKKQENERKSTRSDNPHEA
Notes: whole 60-bp probe, lowest competitor level
CATACCCAACCTTGCTTTGTGGGTGAAGATATTTGT: 59.6 a.u.
CGGGGTTAAGTTTGAATAGTGGGTGGCTTGCAGCAG: 64.3 a.u.
CTTCTCGCGGTGGTGCCCGTGGTTACTCCAGAGGTG: 66.3 a.u.
TGCGCAACAACTTGCGAAGTGGGTGTATGTCTAGAA: 66 a.u.
CGTCCTAGTGATTGTCACAGAACTTCCATGAGGAAG: 79 a.u.
GGGAACTAGGCAAAGCACGGGTTTGGCGAGGCCGCT: 90.5 a.u.
TGCGCAACAACTTGTGTTGTGGGTGTATGTCTAGAA: 65.9 a.u.
CATACCCAACCTTTTCACGTGAAATAAGATATTTGT: 915 a.u.
TCTCTGGCCCGAAACCTCGTGTTGGTACAAATCCTC: 107 a.u.
CACAATGAAAAGGTCCACGTGGTGGGGACTGAGGCC: 1020 a.u.

For quick reference, copied from above (series 3):
GCUUUUCAAGCCAAGGAUGUGGAAGGAUCUACUUCUCCUCAAAUAGGAGAUAAGGUUGAAUUCCGUAUUAGUGACAAACAGAGGCCUGGACAGCAGGUUGCAACUUGUGUGCGACUUUUA: 0.181 ratio
GAUAUCCAAGCUUGCGUGGACCAUGUGAACCUGGUGGUGCAAGAGGAACAUGAGAGGAUUUCCGCCAUUGGUUUAAUUAAUGAAGCCCUGGAUGAAGGUGAUGCCCAAAAGACUCUGCAG: 0.251 ratio
AUUCUCAAUGCCACCCAGGCAGAAAGCAAAGUGUUCUACUUAAAAAUGAAAGGAGACUACUUCCGGUAUCUUUCUGAAGUUGCAUCCGGAGAAAAUAAACAAACCACGGUGUCCAACUCC: 0.132 ratio
